Measurements pooled from the literature.
“And” joins repeats or separate records; there may be more than shown.
Organism: Pseudomonas aeruginosa

SMILES | assay | test system | conditions | how to read | endpoint | value
CC[C@H](C)CCCCC(=O)N[C@@H](CCN)C(=O)N[C@H](C(=O)N[C@@H](CCN)C(=O)N[C@H]1CCNC(=O)[C@H]([C@@H](C)O)NC(=O)[C@H](CCN)NC(=O)[C@H](CCN)NC(=O)[C@H](CC(C)C)NC(=O)[C@@H](CC(C)C)NC(=O)[C@H](CCN)NC1=O)[C@@H](C)O | – | PAO1 | 30 min | – | bacterial count | 0 log CFU
O=C(Nc1ccccc1NC(=O)c1cccc(Cl)c1)c1cccc(Cl)c1 | elastin-Congo red | PAO1 wild type | 100 µM, 20 h | – | elastase production | 54%
COc1c(C)c(OC(=O)c2ccc3ccccc3c2)c(C)c(O)c1C(=O)/C=C/c1ccccc1 | microbial killing, broth dilution | ATCC27853 | – | – | MBC | > 5000 µg/mL
CCCCCCCCCC(=O)CC(=O)Nc1ccccc1 | elastin-Congo red | PAO1 wild type | 100 µM, 20 h | reference: DMSO | elastase production | 68%
COc1c(C)c(OS(=O)(=O)c2ccccc2)c(C)c2c1C(=O)CC(c1ccccc1)O2 (stereo not shown) | microbial killing, broth dilution | ATCC27853 | – | – | MBC | > 5000 µg/mL
CC(C)c1ccc2c(c1)CCC1C(C)(CN(CC(O)C[N+](C)(C)C)CC(O)C[N+](C)(C)C)CCCC21C (stereo not shown) | microbial growth, disc diffusion | ATCC27853 | 125 µg/disc, 24 h | – | inhibition zone | 9 mm
COc1c(C)c(OS(=O)(=O)c2ccccc2)c(C)c(O)c1C(=O)/C=C/c1ccccc1 | microbial killing, broth dilution | ATCC27853 | – | – | MBC | > 5000 µg/mL
CC(C)[C@H]1NC(=O)[C@H](Cc2ccccc2)NC(=O)[C@@H](C(C)C)NC(=O)[C@@H](C)NC(=O)[C@H](CO)NC(=O)[C@@H](Cc2c[nH]c3ccccc23)NC(=O)[C@@H](CO)NC1=O | broth dilution | – | – | – | MIC90 | > 50 µM
O=C(CCCOc1cccc(Br)c1)N[C@H]1CCSC1=O | elastin-Congo red | PAO1 wild type | 100 µM, 20 h | reference: DMSO | elastase production | 190%
CC(C)C1=CC2=CCC3C(C)(C(=O)OCCC[N+](C)(C)C)CCCC3(C)C2CC1 (stereo not shown) | microbial growth, disc diffusion | ATCC27853 | 62.5 µg/disc, 24 h | – | inhibition zone | 10 mm
CC(=O)N[C@@H](CCCCN)C(=O)N1CCC[C@H]1C(=O)N[C@H](C(=O)N[C@@H](Cc1ccccc1)C(=O)N[C@@H](CCC(N)=O)C(=O)N[C@@H](Cc1ccccc1)C(=O)N[C@@H](CC(C)C)C(=O)N[C@@H](Cc1ccccc1)C(=O)N[C@@H](Cc1c[nH]cn1)C(=O)N[C@@H](CCC(=O)O)C(N)=O)C(C)C | flow cytometry | PAO1, hydrogel | concentration not given, 4 h, pH 5.5, 37 °C | – | PI-permeable cells | 11.3%
CCCC(=O)C#Cc1ccc(F)c(F)c1 | microbial growth, absorbance | – | 10 µM, 24 h | – | activity vs control | 97%
O=C(Cc1ccc(Br)cc1)N[C@H]1CCOC1=O | elastin-Congo red | PAO1 wild type | 100 µM, 20 h | – | elastase production | 73%
O=c1cccccc1O | microbial growth, broth dilution | ATCC27853 | – | – | MIC80 | > 71.4 µM
O=C(CCc1ccc(Br)cc1)N[C@H]1CCOC1=O | elastin-Congo red | PAO1 wild type | 100 µM, 20 h | reference: DMSO | elastase production | 94.9%
CCCCCCCC(=O)Oc1c(C)c(OC)c2c(c1C)OC(=O)[C@@H](CCCCCC)[C@]2(O)/C=C/c1ccccc1 (racemic) | microbial killing, broth dilution | ATCC27853 | – | – | MBC | > 5000 µg/mL

SMILES | assay | test system | conditions | how to read | endpoint | value
CN(C)S(=O)(=O)c1ccc(S(=O)(=O)N2CCC(n3c(=O)[nH]c4ccccc43)CC2)cc1 | – | CIP 27853 wild type, Bombyx eri larvae | 2.78 µg/larva | – | bacterial load | 4.84 log CFU/larva and 5.37 log CFU/larva and 4.4 log CFU/larva and 4.25 log CFU/larva and 3.58 log CFU/larva
CC(CCCOC(=O)CCC[N+](C)(C)C)C1CCC2C3CCC4CC(OC(=O)CCC[N+](C)(C)C)CCC4(C)C3CCC12C (stereo not shown) | microbial growth, disc diffusion | ATCC27853 | 31.2 µg/disc, 24 h | – | inhibition zone | 9 mm
CC[C@H](C)[C@H](NC(=O)[C@@H]1CCCN1C(=O)[C@H](CCSC)NC(=O)[C@H](CC(C)C)NC(=O)[C@H](Cc1ccccc1)NC(=O)[C@H](Cc1ccc(O)cc1)NC(=O)[C@@H]1CCC(=O)NCC(=O)NCC(=O)NCC(=O)NCC(=O)N2CCC[C@H]2C(=O)N[C@@H]([C@@H](C)O)C(=O)N2CCC[C@H]2C(=O)N1)C(=O)N[C@@H](CC(=O)O)C(=O)N1CCC[C@H]1C(=O)N[C@@H](C)C(=O)N[C@@H](Cc1c[nH]c2ccccc12)C(=O)N[C@@H](CC(C)C)C(=O)N[C@@H](CCC(N)=O)C(=O)N[C@@H](C)C(=O)N[C@@H](CC(N)=O)C(=O)N[C@@H](CC(C)C)C(=O)N1CCC[C@H]1C(=O)N[C@@H](CC(N)=O)C(=O)N[C@H](C(=O)NCC(=O)N[C@@H](CCCCN)C(=O)N[C@@H](Cc1ccc(O)cc1)C(=O)N[C@@H](CC(N)=O)C(=O)O)[C@@H](C)O | spot-on-lawn | PAO1 | concentration not given, 37 °C | – | antimicrobial activity | inactive
CCCCCCCCCC(=O)Oc1c(C)c(OC)c2c(/C=C/c3ccccc3)c(CCCCCCCC)c(=O)oc2c1C | microbial growth, well diffusion | ATCC27853 | 5 µg/mL | – | inhibition zone | 11 mm
O=C(Oc1cccccc1=O)c1ccc(Cl)cc1 | microbial growth, broth dilution | ATCC27853 | – | – | MIC80 | > 100 µM
CCCC(O)c1nn[nH]c1-c1ccc(O)c(OC)c1 (stereo not shown) | microbial growth, absorbance | – | 10 µM, 24 h | – | activity vs control | 95%
O=C(CCCCCCCCCN=C=S)CC(=O)N[C@H]1CCOC1=O | elastin-Congo red | PAO1 wild type | 100 µM, 20 h | – | elastase production | 291%
CCCC(=O)Oc1c(C)c(OC)c2c(/C=C/c3ccccc3)c(CC)c(=O)oc2c1C | microbial killing, broth dilution | ATCC27853 | – | – | MBC | > 5000 µg/mL
CC(CCCOC(=O)CCC[N+](C)(C)C)C1CCC2C3CCC4CC(OC(=O)CCC[N+](C)(C)C)CCC4(C)C3CC(OC(=O)CCC[N+](C)(C)C)C12C (stereo not shown) | microbial growth, disc diffusion | ATCC27853 | 250 µg/disc, 24 h | – | inhibition zone | 10 mm
CCCCCCCCCNC(=O)CC(=O)c1ccccc1 | elastin-Congo red | PAO1 wild type | 100 µM, 20 h | reference: DMSO | elastase production | 44.3%
COc1cc(Cc2cnc(N)nc2N)cc(OC)c1OC.O=c1[nH]cc(F)c(=O)[nH]1 | broth microdilution | – | 48 h | – | MBC | 16 µg/mL
COc1c(C)c(OC(=O)c2ccccc2)c(C)c(OC(=O)c2ccccc2)c1C(=O)/C=C/c1ccccc1 | microbial growth, well diffusion | ATCC27853 | 5 µg/mL | – | inhibition zone | 10 mm
CCCCCCCCCC(=O)CC(=O)Nc1cccc(OC)c1 | elastin-Congo red | PAO1 wild type | 100 µM, 20 h | – | elastase production | 12%
CCCC(=O)Oc1c(C)c(OC)c2c(c1C)OC(=O)[C@@H](CC)[C@]2(O)/C=C/c1ccccc1 (racemic) | microbial killing, broth dilution | ATCC27853 | – | – | MBC | > 5000 µg/mL
O=c1c(O)ccccc1Br | microbial growth, broth dilution | ATCC27853 | – | – | MIC80 | > 71.4 µM

Excerpt of the above:
SMILES | assay | test system | conditions | how to read | endpoint | value
CCCCCCCCCC(=O)CC(=O)Nc1ccccc1 | elastin-Congo red | PAO1 wild type | 100 µM, 20 h | reference: DMSO | elastase production | 68%
O=C(CCc1ccc(Br)cc1)N[C@H]1CCOC1=O | elastin-Congo red | PAO1 wild type | 100 µM, 20 h | reference: DMSO | elastase production | 94.9%
CCCCCCCCCC(=O)Oc1c(C)c(OC)c2c(/C=C/c3ccccc3)c(CCCCCCCC)c(=O)oc2c1C | microbial growth, well diffusion | ATCC27853 | 5 µg/mL | – | inhibition zone | 11 mm
CC[C@H](C)CCCCC(=O)N[C@@H](CCN)C(=O)N[C@H](C(=O)N[C@@H](CCN)C(=O)N[C@H]1CCNC(=O)[C@H]([C@@H](C)O)NC(=O)[C@H](CCN)NC(=O)[C@H](CCN)NC(=O)[C@H](CC(C)C)NC(=O)[C@@H](CC(C)C)NC(=O)[C@H](CCN)NC1=O)[C@@H](C)O | – | PAO1 | 30 min | – | bacterial count | 0 log CFU
CN(C)S(=O)(=O)c1ccc(S(=O)(=O)N2CCC(n3c(=O)[nH]c4ccccc43)CC2)cc1 | – | CIP 27853 wild type, Bombyx eri larvae | 2.78 µg/larva | – | bacterial load | 4.84 log CFU/larva and 5.37 log CFU/larva and 4.4 log CFU/larva and 4.25 log CFU/larva and 3.58 log CFU/larva
